Measured values collected from several papers.
Each line is one published result; not all experiments were run side by side. Values joined by “and” are separate records of one study, mostly repeats; a detail may differ. Numbers after ± are the reported error.
STING1 H232R: Stimulator of interferon genes protein (STING1, Homo sapiens, UniProt Q86WV6, H232R)

Compound	tested on	assay	test system	setting	scale	endpoint	value
CCCCCC=CC=C1C(=O)C=CC1CC=CCCCC(=O)O (centres unmarked)	KPNB1 (Homo sapiens, UniProt Q14974)	competitive isoTOP-ABPP	Ramos soluble proteome	100 µM, added: iodoacetamide probe	baseline: DMSO over compound-treated, higher = stronger cysteine blockade	isoTOP-ABPP competition ratio	1.5
O=C1c2sc(-c3ccc(N4CCC(F)C4)nc3F)nc2CCN1c1cccnc1 (centres unmarked)	TAR DNA-binding protein 43, aggregated (TARDBP, Homo sapiens, UniProt Q13148)	radioligand binding	human, FTLD-TDP type B extract	added: radioligand 1.8 nM		specific binding	0.207 nM and 0.194 nM
CCCCCCCC/C=C\CCCCCCCC(=O)OCC(O)COP(=O)(O)O (centres unmarked)	LPAR1 (Homo sapiens, UniProt Q92633, W271F)	Gi activation, agonist, NanoBiT G-protein dissociation	HEK293T	W271F mutant, unit not given	baseline: wild type	change in Emax	0.952
CN(C)c1ccc(-n2cc(COC(=O)[C@@]3(C)C=C(C(=O)OC(C)(C)C)C(=O)CC3)nn2)cc1	MAPK8 (Homo sapiens, UniProt P45983)	D-peptide binding, inhibitor, FP peptide displacement		12.5 µM	lower is stronger displacement	fraction bound	0.907
N=C(NCC[C@H](NC(=O)c1ncn(-c2ccccc2)n1)c1nc2ccccc2[nH]1)c1ccc([N+](=O)[O-])o1	STING1 H232R	reporter gene, inhibitor	THP1-Dual KI-hSTING-R232	24 h, 1 h preincubation, added: diABZI 500 nM		EC50	9.1 µM
COc1cc(Nc2nccc(-c3cnn4nc(OC)ccc34)n2)cc(C(F)(F)F)c1	LRRK2 (Homo sapiens, UniProt Q5S007)	binding, competition with immobilised ligand		1 µM		remaining binding	71%
O=C(N[C@@H](CCNC(=O)c1ccc([N+](=O)[O-])o1)c1nc2ccccc2[nH]1)c1ccc(C2CCC2)cc1	STING1 H232R	reporter gene, inhibitor	THP1-Dual KI-hSTING-R232	24 h, 1 h preincubation, added: diABZI 500 nM		EC50	5.7 µM
CCn1cc(-c2cccc(C(F)(F)F)c2)c2sc(C(=N)NC3CCS(=O)(=O)CC3)cc2c1=O	Bromodomain-containing protein 3, BD2 (BRD3, Homo sapiens, UniProt Q15059)					ΔTm	2.8 °C
COC1CN([C@H]2CC[C@H]([C@@]3(C)Oc4c(Cl)cc(C(=O)NCc5c(SC)cc(C)[nH]c5=O)c(C)c4O3)CC2)C1		RNA-seq, refers to: MAP7	human, whole blood	dose not given, 24 h	baseline: pretreatment baseline	log2 fold change	1.43
Cc1ncsc1-c1ccc(C(C)NC(=O)C2CC(O)CN2C(=O)C(NC(=O)CCCCCCCCCCN2CCCC(Nc3ncc(Cl)c(Nc4ccccc4S(=O)(=O)C(C)C)n3)C2)C(C)(C)C)cc1 (centres unmarked)	22Rv1	RNA-seq, refers to: NUP50-DT		concentration not given	baseline: DMSO	log2 fold change	-1.91
CN(Cc1cc(C2CC2)on1)C(=O)c1cccc(-c2ccc3c(c2)CCO3)c1	acetoacetyl-CoA synthetase (Cryptococcus neoformans)	enzyme activity, inhibitor		977 nM		remaining activity	102%
Cn1c(=O)n(C2CCC(=O)NC2=O)c2ccc(C3CCN(CC(=O)Nc4cccc(CS(=O)(=O)N5CC[C@H](Nc6cccc(-c7sc(C(=O)O)c(OCC(=O)O)c7Cl)c6)CC5(C)C)c4)CC3)cc21 (some centres unmarked)	PTPN2 (Homo sapiens, UniProt P17706, H30A/P33A/R35A)	degrader, bio-layer interferometry		500 nM	higher = more binding	BLI binding response	0.394 a.u.
CCOC(=O)C(CC)(CCCSCCOCCNC(=O)OC(C)(C)C)NC(=O)c1ccc(C2CC2)c(Cc2ccc(F)cc2)n1 (centres unmarked)	Cnr2 (Mus musculus, UniProt P47936)	cAMP, agonist				Emax	90%
C[Si](C)(C)C[C@H](CN)CC(=O)O	GALR1 (Homo sapiens, UniProt P47211)	enzyme activity, inhibitor		250 µM		inhibition	0%
O=C(NC[C@@H](Cc1ccc(F)cc1)N1CCC(O)(C(F)(F)F)CC1)C1(c2ccc(Cl)cc2)CCCC1	TRPA1 (Homo sapiens, UniProt O75762, I946M)			concentration not given		activity	inactive
CC(=O)N[C@H]1[C@H](Oc2ccccc2-c2cccc(C(=O)O)c2)O[C@H](CO)[C@H](O)[C@@H]1O	Adhesin FmlH, lectin domain (Escherichia coli, UniProt Q1RBS0)	binding to desialylated bovine submaxillary mucin, inhibitor, ELISA competition	UPEC UTI89	1 µM		inhibition	54.7 ± 2.8%
CC[C@H](C)[C@@H]1NC(=O)[C@H](Cc2ccc(O)cc2)NC(=O)[C@H](Cc2ccccc2)NC(=O)[C@H](C(C)C)NC(=O)[C@H](Cc2ccccc2)NC(=O)CSC[C@@H](C(=O)N[C@@H](Cc2c[nH]cn2)C(N)=O)NC(=O)[C@H](CC(N)=O)NC(=O)[C@H](Cc2c[nH]c3ccccc23)NC1=O	STING1 H232R	thermal stability, DSF		50 µM		ΔTm	8.66 °C

Some of these lines once more:
Compound	tested on	assay	test system	setting	scale	endpoint	value
CCn1cc(-c2cccc(C(F)(F)F)c2)c2sc(C(=N)NC3CCS(=O)(=O)CC3)cc2c1=O	Bromodomain-containing protein 3, BD2 (BRD3, Homo sapiens, UniProt Q15059)					ΔTm	2.8 °C
CC[C@H](C)[C@@H]1NC(=O)[C@H](Cc2ccc(O)cc2)NC(=O)[C@H](Cc2ccccc2)NC(=O)[C@H](C(C)C)NC(=O)[C@H](Cc2ccccc2)NC(=O)CSC[C@@H](C(=O)N[C@@H](Cc2c[nH]cn2)C(N)=O)NC(=O)[C@H](CC(N)=O)NC(=O)[C@H](Cc2c[nH]c3ccccc23)NC1=O	STING1 H232R	thermal stability, DSF		50 µM		ΔTm	8.66 °C
